{"data": "Results from different studies", "PKLR": "Pyruvate kinase PKLR (PKLR, Homo sapiens, UniProt P30613)", "YWHAG/RELA phospho-Ser45 p65 peptide": "YWHAG/RELA, phospho-Ser45 p65 peptide (Homo sapiens, UniProt P61981+Q04206)", "Nuclear receptor subfamily 2 group C member 2 ligand-binding domain": "Nuclear receptor subfamily 2 group C member 2, ligand-binding domain (Homo sapiens, UniProt P49116)", "PPARA": "Peroxisome proliferator-activated receptor alpha (PPARA, Homo sapiens, UniProt Q07869)", "note": "Protocols differ between the studies behind these lines. Numbers after ± are the reported error.", "chain of UniProt P30613 (whole entry, looked up)": "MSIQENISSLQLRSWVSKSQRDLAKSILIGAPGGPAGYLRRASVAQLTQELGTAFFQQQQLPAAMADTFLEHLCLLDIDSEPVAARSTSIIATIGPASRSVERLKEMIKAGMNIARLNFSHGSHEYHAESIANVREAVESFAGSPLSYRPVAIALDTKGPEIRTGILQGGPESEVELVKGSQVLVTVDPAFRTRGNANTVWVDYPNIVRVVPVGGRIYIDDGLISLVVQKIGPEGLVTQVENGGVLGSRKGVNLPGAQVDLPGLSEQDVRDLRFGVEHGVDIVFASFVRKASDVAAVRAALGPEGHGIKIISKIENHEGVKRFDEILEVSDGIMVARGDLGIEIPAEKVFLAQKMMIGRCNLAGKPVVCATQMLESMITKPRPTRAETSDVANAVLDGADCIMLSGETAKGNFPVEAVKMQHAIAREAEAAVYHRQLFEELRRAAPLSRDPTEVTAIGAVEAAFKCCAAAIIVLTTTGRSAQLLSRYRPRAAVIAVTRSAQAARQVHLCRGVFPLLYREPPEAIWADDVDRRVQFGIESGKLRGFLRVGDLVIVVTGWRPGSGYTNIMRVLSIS", "chain of UniProt P61981 (whole entry, looked up)": "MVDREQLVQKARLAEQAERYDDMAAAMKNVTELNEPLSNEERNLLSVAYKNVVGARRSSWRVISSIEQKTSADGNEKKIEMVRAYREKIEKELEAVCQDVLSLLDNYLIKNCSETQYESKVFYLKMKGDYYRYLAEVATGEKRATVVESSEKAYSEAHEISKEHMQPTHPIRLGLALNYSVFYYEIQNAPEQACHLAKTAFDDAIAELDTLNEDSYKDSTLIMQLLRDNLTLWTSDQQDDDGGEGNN", "chain of UniProt Q04206 (whole entry, looked up)": "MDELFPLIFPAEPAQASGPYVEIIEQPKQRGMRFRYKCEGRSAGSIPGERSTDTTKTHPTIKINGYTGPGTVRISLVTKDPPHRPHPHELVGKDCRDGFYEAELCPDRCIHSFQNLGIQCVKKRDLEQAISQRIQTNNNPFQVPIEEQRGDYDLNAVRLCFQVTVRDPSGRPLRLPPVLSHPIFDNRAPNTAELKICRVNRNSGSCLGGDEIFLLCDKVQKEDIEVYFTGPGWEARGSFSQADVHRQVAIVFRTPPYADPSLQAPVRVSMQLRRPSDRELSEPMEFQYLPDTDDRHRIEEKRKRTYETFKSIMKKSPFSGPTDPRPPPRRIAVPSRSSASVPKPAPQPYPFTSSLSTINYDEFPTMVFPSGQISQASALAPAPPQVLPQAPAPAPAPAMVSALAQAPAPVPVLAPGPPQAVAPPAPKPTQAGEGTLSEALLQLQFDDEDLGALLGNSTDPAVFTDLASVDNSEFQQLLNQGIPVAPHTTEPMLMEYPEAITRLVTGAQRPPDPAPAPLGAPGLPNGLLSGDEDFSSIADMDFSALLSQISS", "chain of UniProt P49116 (whole entry, looked up)": "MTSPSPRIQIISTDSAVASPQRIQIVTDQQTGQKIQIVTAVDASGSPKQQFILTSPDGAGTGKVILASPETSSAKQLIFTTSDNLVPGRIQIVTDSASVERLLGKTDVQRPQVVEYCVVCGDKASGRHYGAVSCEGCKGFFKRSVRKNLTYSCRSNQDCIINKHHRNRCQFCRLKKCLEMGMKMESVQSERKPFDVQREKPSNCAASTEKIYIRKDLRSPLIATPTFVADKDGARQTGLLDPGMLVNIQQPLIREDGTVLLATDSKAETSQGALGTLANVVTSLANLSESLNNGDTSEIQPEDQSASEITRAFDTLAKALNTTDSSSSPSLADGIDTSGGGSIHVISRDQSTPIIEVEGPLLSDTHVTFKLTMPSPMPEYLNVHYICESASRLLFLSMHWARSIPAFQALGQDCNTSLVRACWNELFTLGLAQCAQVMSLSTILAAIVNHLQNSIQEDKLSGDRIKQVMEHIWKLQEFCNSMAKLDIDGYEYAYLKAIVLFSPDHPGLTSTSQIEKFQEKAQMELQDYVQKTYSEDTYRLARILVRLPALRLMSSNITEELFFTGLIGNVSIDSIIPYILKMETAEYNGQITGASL", "chain of UniProt Q07869 (whole entry, looked up)": "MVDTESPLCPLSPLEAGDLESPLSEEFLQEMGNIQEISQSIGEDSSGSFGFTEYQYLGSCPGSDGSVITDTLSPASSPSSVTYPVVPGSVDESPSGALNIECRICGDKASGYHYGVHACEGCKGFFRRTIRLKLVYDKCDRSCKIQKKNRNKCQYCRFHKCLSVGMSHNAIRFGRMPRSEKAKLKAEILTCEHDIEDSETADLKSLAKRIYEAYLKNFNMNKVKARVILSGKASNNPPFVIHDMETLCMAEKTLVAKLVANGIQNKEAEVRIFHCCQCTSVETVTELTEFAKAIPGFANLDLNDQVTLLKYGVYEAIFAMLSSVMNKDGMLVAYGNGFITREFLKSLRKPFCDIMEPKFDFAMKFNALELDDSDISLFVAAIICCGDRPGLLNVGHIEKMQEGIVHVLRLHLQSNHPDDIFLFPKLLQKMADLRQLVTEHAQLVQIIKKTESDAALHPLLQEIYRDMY", "chain of UniProt Q7RTX1 (whole entry, looked up)": "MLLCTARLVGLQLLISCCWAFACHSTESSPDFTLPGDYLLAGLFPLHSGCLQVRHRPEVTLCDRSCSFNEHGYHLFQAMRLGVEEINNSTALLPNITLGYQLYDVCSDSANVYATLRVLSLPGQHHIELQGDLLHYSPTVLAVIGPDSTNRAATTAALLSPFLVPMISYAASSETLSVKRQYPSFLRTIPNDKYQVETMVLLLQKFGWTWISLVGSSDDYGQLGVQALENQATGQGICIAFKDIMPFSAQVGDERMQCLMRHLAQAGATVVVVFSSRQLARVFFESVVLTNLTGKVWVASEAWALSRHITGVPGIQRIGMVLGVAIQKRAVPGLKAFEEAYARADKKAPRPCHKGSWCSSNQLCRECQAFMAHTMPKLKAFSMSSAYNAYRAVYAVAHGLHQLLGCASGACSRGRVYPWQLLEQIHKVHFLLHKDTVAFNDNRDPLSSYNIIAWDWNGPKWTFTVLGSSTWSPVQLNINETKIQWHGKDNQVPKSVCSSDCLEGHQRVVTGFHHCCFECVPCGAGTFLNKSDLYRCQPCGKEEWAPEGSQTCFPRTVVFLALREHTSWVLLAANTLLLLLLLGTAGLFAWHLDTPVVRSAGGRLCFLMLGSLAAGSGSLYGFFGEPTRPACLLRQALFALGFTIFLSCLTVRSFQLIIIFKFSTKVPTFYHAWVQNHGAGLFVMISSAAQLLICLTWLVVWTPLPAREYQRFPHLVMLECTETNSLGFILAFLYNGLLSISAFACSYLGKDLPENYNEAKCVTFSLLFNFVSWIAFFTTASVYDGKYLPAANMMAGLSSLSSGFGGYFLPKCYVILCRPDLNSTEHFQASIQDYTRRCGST", "chain of UniProt P10145 (whole entry, looked up)": "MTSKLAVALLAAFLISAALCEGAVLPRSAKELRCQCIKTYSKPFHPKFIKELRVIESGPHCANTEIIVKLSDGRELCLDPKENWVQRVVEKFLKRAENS", "chain of UniProt Q1LX78 (whole entry, unmodified, looked up)": "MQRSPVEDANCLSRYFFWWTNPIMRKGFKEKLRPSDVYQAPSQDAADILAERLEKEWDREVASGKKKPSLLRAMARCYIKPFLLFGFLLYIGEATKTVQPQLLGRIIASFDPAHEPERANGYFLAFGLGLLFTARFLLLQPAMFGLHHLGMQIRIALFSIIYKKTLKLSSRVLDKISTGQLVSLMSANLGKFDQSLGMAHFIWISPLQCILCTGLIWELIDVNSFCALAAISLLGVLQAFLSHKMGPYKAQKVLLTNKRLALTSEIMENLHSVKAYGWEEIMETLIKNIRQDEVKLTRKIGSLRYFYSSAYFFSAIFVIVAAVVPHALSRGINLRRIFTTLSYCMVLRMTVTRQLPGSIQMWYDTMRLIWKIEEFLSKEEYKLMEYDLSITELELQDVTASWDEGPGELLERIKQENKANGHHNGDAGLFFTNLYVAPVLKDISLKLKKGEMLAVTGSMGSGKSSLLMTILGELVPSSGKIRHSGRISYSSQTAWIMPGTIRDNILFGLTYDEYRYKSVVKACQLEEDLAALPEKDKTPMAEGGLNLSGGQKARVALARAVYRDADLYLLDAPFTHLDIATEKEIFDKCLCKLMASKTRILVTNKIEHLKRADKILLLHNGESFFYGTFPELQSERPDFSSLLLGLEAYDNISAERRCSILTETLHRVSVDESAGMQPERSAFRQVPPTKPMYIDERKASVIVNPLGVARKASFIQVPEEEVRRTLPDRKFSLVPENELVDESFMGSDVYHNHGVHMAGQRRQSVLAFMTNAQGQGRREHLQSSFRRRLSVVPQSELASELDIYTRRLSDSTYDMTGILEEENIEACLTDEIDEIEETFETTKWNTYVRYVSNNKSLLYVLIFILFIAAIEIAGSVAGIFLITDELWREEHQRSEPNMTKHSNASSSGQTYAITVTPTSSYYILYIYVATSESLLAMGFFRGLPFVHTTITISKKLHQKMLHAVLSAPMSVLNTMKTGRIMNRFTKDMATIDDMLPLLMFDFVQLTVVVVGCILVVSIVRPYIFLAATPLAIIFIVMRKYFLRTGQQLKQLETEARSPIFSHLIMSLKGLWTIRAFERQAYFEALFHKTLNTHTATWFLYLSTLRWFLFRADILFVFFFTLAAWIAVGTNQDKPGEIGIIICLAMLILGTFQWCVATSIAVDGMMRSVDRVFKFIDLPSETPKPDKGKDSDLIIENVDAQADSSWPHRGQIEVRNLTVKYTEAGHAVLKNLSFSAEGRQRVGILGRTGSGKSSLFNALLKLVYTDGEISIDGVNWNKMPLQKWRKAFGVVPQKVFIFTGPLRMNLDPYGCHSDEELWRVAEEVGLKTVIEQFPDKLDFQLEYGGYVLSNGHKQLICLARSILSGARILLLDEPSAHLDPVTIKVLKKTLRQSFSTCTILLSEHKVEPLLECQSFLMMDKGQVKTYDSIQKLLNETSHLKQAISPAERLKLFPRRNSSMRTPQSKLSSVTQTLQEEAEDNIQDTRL"}
{"Structure (SMILES)": "NC(=O)c1ccccc1SC1=NS(=O)(=O)c2ccccc21", "target": "PKLR", "test": "enzyme activity, activator", "conditions": "30 min, 24 °C, with: 0.125 mM PEP and 0.1 mM ADP", "quantity": "EC50", "result": "0.67 µM"}
{"Structure (SMILES)": "CS(=O)(=O)c1ccccc1C=O", "target": "YWHAG/RELA phospho-Ser45 p65 peptide", "test": "ternary complex formation, stabilizer, fluorescence anisotropy", "quantity": "EC50", "result": "> 1000 µM"}
{"Structure (SMILES)": "CN1CC2c3ccccc3Oc3ccc(Cl)cc3C2C1 (stereo not drawn)", "target": "5-hydroxytryptamine receptor 1A, with Goα S314K (HTR1A, Homo sapiens, UniProt P08908)", "quantity": "EC50", "result": "0.0314 µM"}
{"Structure (SMILES)": "O=Cc1ccc(-n2ccnc2)nc1", "target": "YWHAG/RELA phospho-Ser45 p65 peptide", "test": "ternary complex formation, stabilizer, fluorescence anisotropy", "quantity": "EC50", "result": "> 1000 µM"}
{"Structure (SMILES)": "O=C(COP(=O)(O)O)[C@@H](O)[C@H](O)[C@H](O)COP(=O)(O)O", "target": "Pyruvate kinase PKM (PKM, Homo sapiens, UniProt P14618)", "test": "pyruvate kinase activity, activator", "system": "HeLa cell lysate", "conditions": "without AIM", "quantity": "EC50", "result": "0.0435 ± 0.0186 µM"}
{"Structure (SMILES)": "CC1(C)Cc2c(sc(NC(=O)c3ccn[nH]3)c2C(N)=O)C(C)(C)O1", "target": "cftr (Danio rerio, UniProt Q1LX78, L1146N)", "test": "chloride current, activator, inside-out patch clamp", "system": "CHO cells transfected", "quantity": "EC50", "result": "3.6 ± 1.92 µM"}
{"Structure (SMILES)": "O=Cc1ccc([N+](=O)[O-])c(N2CCc3ccccc3C2)c1", "target": "YWHAG/RELA phospho-Ser45 p65 peptide", "test": "ternary complex formation, stabilizer, fluorescence anisotropy", "quantity": "EC50", "result": "> 1000 µM"}
{"Structure (SMILES)": "CO[C@H]1O[C@H](COS(=O)(=O)O)[C@@H](O[C@@H]2O[C@@H](C(=O)O)[C@@H](O[C@H]3O[C@H](COS(=O)(=O)O)[C@@H](O[C@@H]4O[C@H](C(=O)O)[C@@H](O[C@H]5O[C@H](COS(=O)(=O)O)[C@@H](O)[C@H](O)[C@H]5NS(=O)(=O)O)[C@H](O)[C@H]4O)[C@H](OS(=O)(=O)O)[C@H]3NS(=O)(=O)O)[C@H](O)[C@H]2OS(=O)(=O)O)[C@H](O)[C@H]1NS(=O)(=O)O", "target": "Interleukin-8 (CXCL8, Homo sapiens, UniProt P10145)", "test": "fluorescence polarization competition", "conditions": "CXCL8 800 nM, 100% DW, with: TAMRA-labelled probe", "quantity": "EC50", "result": "26.3 ± 5.6 µM"}
{"Structure (SMILES)": "COC(=O)c1ccccc1OC1=NS(=O)(=O)c2ccccc21", "target": "PKLR", "test": "enzyme activity, activator", "conditions": "30 min, 24 °C, with: 0.125 mM PEP and 0.1 mM ADP", "quantity": "EC50", "result": "0.77 µM"}
{"Structure (SMILES)": "COc1ccccc1OCC(O)COC(N)=O (stereo not drawn)", "target": "Nuclear receptor subfamily 2 group C member 2 ligand-binding domain", "test": "SPR imaging", "quantity": "Kd", "result": "0.0959 nM"}
{"Structure (SMILES)": "CN1CCN(S(=O)(=O)c2ccc(C=O)cc2)CC1", "target": "YWHAG/RELA phospho-Ser45 p65 peptide", "test": "ternary complex formation, stabilizer, fluorescence anisotropy", "quantity": "EC50", "result": "> 1000 µM"}
{"Structure (SMILES)": "C[C@H](CCC(=O)NCC(=O)O)[C@H]1CC[C@H]2[C@@H]3[C@@H](O)C[C@@H]4C[C@H](O)CC[C@]4(C)[C@H]3CC[C@]12C", "target": "GPBAR1 (Homo sapiens, UniProt Q8TDU6)", "test": "agonist", "quantity": "EC50", "result": "34.6 ± 9.6 µM"}
{"Structure (SMILES)": "CCO[C@@H](Cc1ccc(OCCn2c(C)ccc2-c2ccc(SC)cc2)cc1)C(=O)O", "target": "PPARA", "test": "receptor activation, agonist, cell-based", "quantity": "EC50", "result": "0.3 µM"}
{"Structure (SMILES)": "CC[C@H](C)[C@H](NC(=O)[C@H](CC(C)C)NC(=O)[C@@H](N)CO)C(=O)NCC(=O)N[C@@H](CCCNC(=N)N)C(=O)N[C@@H](CC(C)C)C(N)=O", "target": "F2RL1 (Homo sapiens, UniProt P55085)", "test": "agonist, cell-based", "quantity": "EC50", "result": "0.668 µM"}
{"Structure (SMILES)": "CCCCC[C@H](O)/C=C/[C@H]1[C@H](O)CC(=O)[C@@H]1C/C=C\\CCCC(=O)O", "target": "PTGER1 (Homo sapiens, UniProt P34995, M117A)", "test": "IP1 accumulation, agonist", "system": "AD293", "conditions": "EP1 M117A mutant", "quantity": "EC50", "result": "0.221 µM"}
{"Structure (SMILES)": "CNC(=O)c1ccccc1SC1=NS(=O)(=O)c2ccccc21", "target": "PKLR", "test": "enzyme activity, activator", "conditions": "30 min, 24 °C, with: 0.125 mM PEP and 0.1 mM ADP", "quantity": "EC50", "result": "0.84 µM"}
{"Structure (SMILES)": "CSc1ccc(C(=O)/C=C/c2cc(C)c(OC(C)(C)C(=O)O)c(C)c2)cc1", "target": "PPARA", "test": "receptor activation, agonist, cell-based", "quantity": "EC50", "result": "0.1 µM"}
{"Structure (SMILES)": "CN(CCOc1ccc(NS(C)(=O)=O)cc1)CCc1ccc(NS(C)(=O)=O)cc1", "target": "Nuclear receptor subfamily 2 group C member 2 ligand-binding domain", "test": "SPR imaging", "quantity": "Kd", "result": "0.0772 nM"}
{"Structure (SMILES)": "COc1ccc2c(c1)nc(Cl)n2S(=O)(=O)c1ccc(C=O)cc1", "target": "YWHAG/RELA phospho-Ser45 p65 peptide", "test": "ternary complex formation, stabilizer, fluorescence anisotropy", "quantity": "EC50", "result": "> 1000 µM"}
{"Structure (SMILES)": "CCCC(CCC)NC(=O)c1ccc2c(c1)OCO2", "target": "T1R1/T1R3 (Homo sapiens, UniProt Q7RTX0+Q7RTX1)", "test": "receptor activation, agonist, luminescence", "system": "stably transfected cells", "quantity": "EC50", "result": "1.6 µM"}
{"Structure (SMILES)": "Cn1ccc(NC(=O)c2ccc(C=O)cc2)n1", "target": "YWHAG/RELA phospho-Ser45 p65 peptide", "test": "ternary complex formation, stabilizer, fluorescence anisotropy", "quantity": "EC50", "result": "> 1000 µM"}
{"Structure (SMILES)": "Cc1nn(-c2nc3c(F)cc(F)cc3s2)c(O)c1C(c1ccc(C(F)(F)F)cc1)c1c(C)nn(-c2nc3c(F)cc(F)cc3s2)c1O", "target": "Cyclic GMP-AMP synthase, catalytic domain; with DNA (CGAS, Homo sapiens, UniProt Q8N884)", "test": "cGAS phase separation, inhibitor", "quantity": "EC50", "result": "4.25 µM"}
{"Structure (SMILES)": "COC1CCN(c2cc(C=O)ccc2[N+](=O)[O-])CC1", "target": "YWHAG/RELA phospho-Ser45 p65 peptide", "test": "ternary complex formation, stabilizer, fluorescence anisotropy", "quantity": "EC50", "result": "> 1000 µM"}
{"Structure (SMILES)": "Cc1ccc(NC(=O)c2cccc(N(C)C)c2)cc1NC(=O)c1ccc(O)cc1", "target": "MAPK14 (Homo sapiens, UniProt Q16539)", "test": "thermal stabilization, binder, isothermal NanoLuc TSA", "system": "permeabilized HeLa, Nluc fusion", "quantity": "EC50", "result": "13.4 µM"}
{"note": "For quick reference, copied from above:"}
{"Structure (SMILES)": "CO[C@H]1O[C@H](COS(=O)(=O)O)[C@@H](O[C@@H]2O[C@@H](C(=O)O)[C@@H](O[C@H]3O[C@H](COS(=O)(=O)O)[C@@H](O[C@@H]4O[C@H](C(=O)O)[C@@H](O[C@H]5O[C@H](COS(=O)(=O)O)[C@@H](O)[C@H](O)[C@H]5NS(=O)(=O)O)[C@H](O)[C@H]4O)[C@H](OS(=O)(=O)O)[C@H]3NS(=O)(=O)O)[C@H](O)[C@H]2OS(=O)(=O)O)[C@H](O)[C@H]1NS(=O)(=O)O", "target": "Interleukin-8 (CXCL8, Homo sapiens, UniProt P10145)", "test": "fluorescence polarization competition", "conditions": "CXCL8 800 nM, 100% DW, with: TAMRA-labelled probe", "quantity": "EC50", "result": "26.3 ± 5.6 µM"}
{"Structure (SMILES)": "NC(=O)c1ccccc1SC1=NS(=O)(=O)c2ccccc21", "target": "PKLR", "test": "enzyme activity, activator", "conditions": "30 min, 24 °C, with: 0.125 mM PEP and 0.1 mM ADP", "quantity": "EC50", "result": "0.67 µM"}
